Measured values gathered from unrelated publications.
Each line is one published result; not all experiments were run side by side. Numbers after ± are the reported error.

For `COc1ccnc(C(=O)N[C@H]2COC(=O)[C@H](Cc3ccccc3)[C@@H](OC(=O)C(C)C)[C@H](C)OC2=O)c1O`, the DT50 was 29.3 days (aerobic dark soil incubation; sandy loam soil; 20 °C, modelling endpoint).
For `Cc1ccc(CN2C(=O)/C(=N\c3ccc(Cl)cc3Br)c3ccccc32)cc1`, the haematocrit was 37.4 ± 2.43% (mouse, blood; 100 mg/kg).
`C=CC(=O)Nc1cc(Nc2nccc(-c3cn(C4CC4)c4ccccc34)n2)c(OC)cc1N(C)CCNC` has a relative error of -12.4% (freeze-thaw stability; rat plasma; 1 ng/mL, three freeze-thaw cycles; relative to: nominal concentration).
`C=C(NC(=O)c1csc(-c2nc3c(cc2O)-c2nc(cs2)C(=O)NC(C(C)O)C(=O)NC(=C(C)OC)c2nc(cs2)C(=O)NC2c4nc(cs4)C(=O)NC(COC(=O)c4c5c6c(cccc6n4O)COC(=O)C(OC4CC(C)(O)C(N(C)C)C(C)O4)C2OC5)c2nc-3cs2)n1)C(N)=O` (stereo not shown) gave an AUC(0-t) of 1200 nM·h (ICR mice, Streptococcus pneumoniae ATCC 49169 infected, immunocompromised, blood; intravenous, 32 mg/kg twice daily).
`CC(C)OCCOCc1ccc(OCC(O)CN(N=O)C(C)C)cc1` (stereo not shown) — result for “revertant fold increase”: 2.5 fold (Salmonella typhimurium; Ames test; TA100; 1580 µg/plate, 30 % hamster S9; relative to: solvent control).
With `O=C(NS(=O)(=O)c1cccs1)c1cc2ccccc2n1Cc1ccc(Br)c2ccccc12` the tissue concentration was 660 ng/g (Sprague-Dawley rat, male, ankle joint tissue; oral, 2 mg/kg, 24 h).
`CC(C)(F)CC(NC(c1ccc(-c2ccc(S(C)(=O)=O)cc2)cc1)C(F)(F)F)C(=O)NCC#N` (stereo not shown): “cysteine adduct formation” 98% (PBS; 100 µM, 23 h, pH 8, 37 °C, added: cysteine 10 mM).
`O=C1C2CC3CC1CC(C(=O)N1CCN(c4ccc([N+](=O)[O-])c5ncccc45)CC1)(C3)C2` has an AUC(0-t) of 0.14 µg·h/mL (ICR mice male, plasma; intravenous, 1 mg/kg).
`Cc1cccc(Cn2ncc3c4cc(F)c(CN(C)C)cc4n(C)c3c2=O)n1` — result for plasma concentration: “not detected” (Dutch-belted rabbit, plasma; intravitreal, 1 µM vitreous, 2.00 days).
`CN([O-])C(=O)CN1CCNCCN(CC(=O)N(C)[O-])CC1.[89Zr+4]` has a tracer uptake of 0.93 %ID/g (mouse, bone; intravenous, 4 h).
`OC1(C(F)(F)F)CCN(c2nc(Nc3ccnc(C(F)(F)F)c3)nc(-c3cccc(C(F)(F)F)n3)n2)C1` (stereo not shown) has a Tmax of 6.67 ± 2.07 h (monkey, plasma; oral, 10 mg/kg).
The fluorescence lifetime of `CCCCN1C(=O)c2cccc3c(NCCCCCCCCCCN4CCOCC4)ccc(c23)C1=O` is reported as 8.4 ns (methanol).
The distribution half-life of `O=C([O-])CN1CCN(CC(=O)[O-])CCN(CC(=O)NCC2CCC(C(=O)NC(Cc3ccc4ccccc4c3)C(=O)NCCCCC(NC(=O)NC(CCC(=O)O)C(=O)O)C(=O)O)CC2)CCN(CC(=O)[O-])CC1.[68Ga+3]` (stereo not shown) is reported as 1 min (BALB/c mouse, blood; intravenous).
With `Nc1ncc(-c2cc(-c3cnn(CC(F)(F)F)c3)ncc2F)nc1C(=O)NC1CNCC(F)C1` (stereo not shown) the remaining binding was 52% (MEK2; KINOMEscan; 1 µM; relative to: DMSO control).
For `C[N+](C)(CCOCCOCCOCCNC(=S)Nc1ccc(C[C@H]2CN(CC(=O)[O-])CCN(CC(=O)[O-])CCN2CC(=O)[O-])cc1)C[c-]1cccc1.[64Cu+2].[Fe+2].c1cc[cH-]c1`, the tumour uptake was 2.6 ± 0.9 %ID/mL (pretargeted PET; nude mouse, BxPC-3 xenograft; 24 h post-radioligand, 72 h lag time).
For `CN1C(=O)[C@@H](Cc2ccc(O)c(I)c2)NC(=O)CNC(=O)[C@H](Cc2ccc3ccccc3c2)NC(=O)[C@H](CCCNC(=N)N)NC(=O)[C@H]1CCCNC(=O)c1ccc(CNC(=O)CN2CCN(CC(=O)O)CCN(CC(=O)O)CCN(CC(=O)O)CC2)cc1` [lutetium-177 labelled], “total absorbed dose” read 0.022 mGy/MBq (2; human, extrapolated from mouse, Lower large intestine wall).
`O=C(OC(C(F)(F)F)C(F)(F)F)N1CCC(CNS(=O)(=O)c2ccc(Cl)cc2)CC1` has a Cmax of 11.1 µg/mL (male SCID mouse, brain; oral, 30 mg/kg).
With `COC1CN([C@H]2CC[C@H]([C@@]3(C)Oc4c(Cl)cc(C(=O)NCc5c(SC)cc(C)[nH]c5=O)c(C)c4O3)CC2)C1` the AUC(0-t) was 7.22 µg·h/mL (female CB17 SCID mice, HT-1376 xenograft, plasma; 75 mg/kg, day 1).
`C=CC(=O)Nc1cccc(Cn2ncc3cnc(Nc4cnn(CCOC)c4)nc32)c1` — result for “percent of control”: 87% (MLK3 human; binding, KINOMEscan; 100 nM; lower = stronger binding).
`N#C[C@@H]1CC(F)(F)CN1C(=O)CNC(=O)c1ccnc2c(NC(=O)[C@H](CCCCNC(=O)CCOCCOCCOCCOCCOCCOCCNC(=O)CN3CCN(CC(=O)[O-])CCN(CC(=O)[O-])CCN(CC(=O)[O-])CC3)NC(=O)CCCc3ccc(I)cc3)cccc12.[177Lu+3]` gave a tracer uptake of 1.54 %ID/g (U-87 MG tumour model; host not given, heart; 4 h, tumour-bearing).
The IC50 of `CNS(=O)(=O)Nc1nccc(Cc2c(C)c3ccc(Oc4ncccc4F)cc3oc2=O)c1F` is reported as 8.03 nM (KYSE-520; cell viability; 7 days).
Under “Tmax at second steady-state dose”, `CN1CCC[C@]1(C)/C=C/S(=O)(=O)NC(=O)Nc1c2c(cc3c1C(O)CC3)CCC2` (stereo partly shown) is recorded as 3 h (human, plasma; oral, 100 mg twice daily of parent drug, day 14, metabolite of dosed drug).
For `O=C(Nc1cnccc1-c1ccc([18F])cc1)c1ccnc(NC(=O)C2CC2)c1`, the SUV was 0.17 (FVB/NJ mice (both sexes), heart; intravenous, dose not given, 120 min).
`C/C(N)=N/C(=N\S(=O)(=O)c1ccc(C(F)(F)F)cc1)N1C[C@H](c2ccccc2)C(c2ccc(Cl)cc2)=N1` gave a Tmax of 4 h (cynomolgus monkey, female, plasma; oral, 18 mg/kg).
For `CCCC[C@H](NC(=O)CNC(=O)CNC(=O)[C@H](CCCCNC(=O)[C@H](CC(=O)O)NC(=O)C(C)c1ccc(CC(C)C)cc1)NC(=O)CN1CCN(CC(=O)O)CCN(CC(=O)O)CCN(CC(=O)O)CC1)C(=O)N[C@H]1CC(=O)NCCCC[C@@H](C(N)=O)NC(=O)[C@H](Cc2c[nH]c3ccccc23)NC(=O)[C@H](CCCNC(=N)N)NC(=O)[C@@H](Cc2ccccc2)NC(=O)[C@H](Cc2c[nH]cn2)NC1=O` (stereo partly shown) [lutetium-177 labelled], “tumour to tissue ratio” read 4.64 (C57 mouse; intravenous, 2 h, added: NDP-MSH blockade; relative to: tumour over muscle).
Under “cumulative recovery of radioactivity”, `Cc1cc(-c2ccc(C(=O)[C@@H]3CCCC[C@H]3C(=O)Nc3cnn4c3C(=O)NCC4)cc2)[nH]n1` is recorded as 73.2% (human, faeces; oral, 200 mg, 0-192 h; relative to: dose).
`CN[C@H](CC(C)C)C(=O)N[C@H]1C(=O)N[C@@H](CC(N)=O)C(=O)N[C@H]2C(=O)N[C@H]3C(=O)N[C@H](C(=O)N[C@H](C(=O)N[C@H](CCCNC(=N)N)C(N)=O)c4cc(O)cc(O)c4-c4cc3ccc4O)[C@H](O)c3ccc(c(Cl)c3)Oc3cc2cc(c3O[C@@H]2O[C@H](CO)[C@@H](O)[C@H](O)[C@H]2O[C@H]2C[C@](C)(N)[C@H](O)[C@H](C)O2)Oc2ccc(cc2Cl)[C@H]1O` has a Cmax of 58.6 µg/mL (female CD-1 mouse, plasma; intravenous, 25 mg/kg, single dose).
For `C=CC(=O)Nc1cc(Nc2nccc(-c3c[nH]c4ccccc34)n2)c(OC)cc1N(C)CCN(C)C`, the recovery was 51.1% (storage stability; human dried blood spot; 30 d, on ice, LLOQ level).
For `Cc1cc(NC(=O)[C@H](O)c2cc(F)cc(F)c2)ccc1-c1cnc(N)c(C(=O)NC(C)C)c1`, the Cmax was 1.71 µg/mL (female nude mouse, plasma; oral, 10 mg/kg, single dose).
With `COc1cccc(OC)c1-c1cc(C(=O)NC2(C(=O)O)C3CC4CC(C3)CC2C4)nn1-c1ccc(C(=O)N(C)CCCN(C)CCCN(C)C(=O)[C@H](CCCCNC(=O)[C@H](CC(C)C)NC(=O)C2OC2C(=O)O)NC(=O)CN2CCN(CC(=O)[O-])CCN(CC(=O)[O-])CCN(CC(=O)[O-])CC2)cc1C(C)C.[177Lu+3]` (mixture of isomers) the tumour-to-heart ratio was 7.36 (mouse, HT-29 xenograft; 4 h post injection, biodistribution; relative to: tumour over heart uptake).
`Cc1nc(N)nc2c1C(=O)N[C@@H](c1ccc(F)cc1-c1cccc(O[11CH3])n1)C2` has an SUV of 2.5 ± 0.3 (ex vivo biodistribution; healthy mice, pancreas; 60 min post-injection, baseline, vehicle pre-treatment).
`C=Cc1c(C)c2cc3nc(c(CC(=O)OCCOCCOCCOC)c4[nH]c(cc5nc(cc1[nH]2)C(C)=C5CC)c(C)c4C(=O)OCCOCCOCCOC)[C@@H](CCC(=O)OCCOCCOCCOC)[C@@H]3C` has a compound loss of 100% (LC-MS; methanol-water 9:1; 1 h, pH 8.0).
For `O=C1NC2(CC2)COc2ncc(F)cc2[C@H]2COCCN2c2ccn3ncc1c3n2`, the revertant colonies was 390 ± 11 revertants/plate (Salmonella typhimurium; Ames test; TA102; 50 µg/plate, 48 h, added: without S9).
`CCNCC#CCNc1ccnc2cc(Cl)ccc12` — result for “MS peak area”: 3e+06 a.u. (measured: compound as metabolite; human hepatocytes; 10 µM DAQ, 30 min; higher = more metabolite formed).

A few entries again:
With `Nc1ncc(-c2cc(-c3cnn(CC(F)(F)F)c3)ncc2F)nc1C(=O)NC1CNCC(F)C1` (stereo not shown) the remaining binding was 52% (MEK2; KINOMEscan; 1 µM; relative to: DMSO control).
`C=Cc1c(C)c2cc3nc(c(CC(=O)OCCOCCOCCOC)c4[nH]c(cc5nc(cc1[nH]2)C(C)=C5CC)c(C)c4C(=O)OCCOCCOCCOC)[C@@H](CCC(=O)OCCOCCOCCOC)[C@@H]3C` has a compound loss of 100% (LC-MS; methanol-water 9:1; 1 h, pH 8.0).
